Assay results pooled from the literature.
Numbered parts are unrelated; each lists some results of a single study.

Set 1
Target: Histone acetyltransferase KAT6A, winged helix 1, GST fusion (KAT6A, Homo sapiens, UniProt Q92794, residues 1-85)
Method: protein binding microarray
Molecule type: double-stranded DNA, one strand shown
Medium: in vitro
Tested at: not given
Setting: 8-mer, flanks averaged, mean of 2 arrays, mostly near background
Baseline: not given
Reading: higher = stronger binding
Target sequence (chain): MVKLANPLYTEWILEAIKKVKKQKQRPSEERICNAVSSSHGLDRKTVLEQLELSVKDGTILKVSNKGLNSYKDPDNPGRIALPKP
| Strand | E-score |
| --- | --- |
| CCCATTTA | -0.197 |
| GGGGGATA | -0.0578 |
| CTTGGGCA | -0.048 |

Set 2
Target: Prothrombin, mature alpha-thrombin (F2, Homo sapiens, UniProt P00734)
Method: aptamer microarray, sandwich
Molecule type: DNA with 2'F-ANA
Medium: in vitro
Tested at: 200 nM
Setting: whole 15-mer aptamer, many near background
Added: Cy3 exosite-II aptamer, 400 nM
Reading: higher = stronger binding
| Strand | mean fluorescence intensity [a.u.] |
| --- | --- |
| GGTTGGTGTGGTTGG (2'F-ANA at 2 5 6 7 8 10 15) | 44.6 |
| GGTTGGTGTGGTTGG (2'F-ANA at 1 2 3 5 9 12 14) | 45.7 |
| GGTTGGTGTGGTTGG (2'F-ANA at 1 3 5 6 9 11 12 13) | 72.3 |
| GGTTGGTGTGGTTGG (2'F-ANA at 4 7 9 11 12) | 417 |

Set 3
Target: Centromere-binding protein 1, full length, N-terminal tag (CBF1, Saccharomyces cerevisiae, UniProt P17106, residues 1-351)
UniProt P17106, sequence (whole entry, looked up): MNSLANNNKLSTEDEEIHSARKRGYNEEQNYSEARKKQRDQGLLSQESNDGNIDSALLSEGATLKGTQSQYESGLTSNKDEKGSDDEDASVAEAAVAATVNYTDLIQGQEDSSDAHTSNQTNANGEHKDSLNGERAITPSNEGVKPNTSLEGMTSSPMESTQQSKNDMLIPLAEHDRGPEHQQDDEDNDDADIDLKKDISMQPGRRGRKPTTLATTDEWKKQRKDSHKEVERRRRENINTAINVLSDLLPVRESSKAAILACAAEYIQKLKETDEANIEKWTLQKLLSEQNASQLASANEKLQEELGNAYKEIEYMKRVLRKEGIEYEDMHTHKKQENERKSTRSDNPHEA
Method: protein-binding microarray
Molecule type: double-stranded DNA, one strand shown
Medium: in vitro
Tested at: 0.8 µM
Setting: whole 60-bp probe, no competitor
Reading: higher = stronger binding
All sequences stand within: … GTCTTGATTCGCTTGACGCTGCTG
| Strand | fluorescence intensity |
| --- | --- |
| CTATCACGGAACATAACCGTGATTGAAAATTACTTC | 881 a.u. |
| CCTAACTACTATAAGGACGTGTCATAGCTTCGTACA | 516 a.u. |
| CTAAAGTACTGTATACACATGATAATAACTGGTTTC | 694 a.u. |
| CTATCAAATAGACGTCACCCCATCATCCCACATTTC | 567 a.u. |
| GAAATCTTTTTTTTTTGCGTGATCTTTATCAATTAG | 682 a.u. |

Single results of other studies
| Molecule | target | test | system | setting | how to read | endpoint | result |
| --- | --- | --- | --- | --- | --- | --- | --- |
| PhoQ, residues 284 288 289 292 302 303 SCEHLI | PhoP, residues 12 14 15 18 19 LWHVM (Escherichia coli, UniProt P23836) | Sort-seq, refers to: YFP reporter | E. coli | PhoQ-PhoP variant library, added: 10 µM Mg2+ | baseline: high Mg2+ state, higher = stronger signaling | fold induction | 13.3 |

For quick reference, copied from above (set 3):
| Strand | fluorescence intensity |
| --- | --- |
| CTAAAGTACTGTATACACATGATAATAACTGGTTTC | 694 a.u. |
